Literature values as cited in several papers.
Compare with care: the assays were run in different laboratories.

Cc1ncc2n1-c1ccc(Cl)cc1C(c1ccccc1F)=NC2  fraction unbound (alpha-1-acid glycoprotein): 0.03
CCCC(C(=O)c1ccc2c(c1)OCO2)N1CCCC1 (racemic)  IC50 (CYP2D6; enzyme activity, inhibitor): 1300 nM
Cc1nnc2n1-c1ccc(Cl)cc1C(c1ccccc1Cl)=NC2  Km (CYP3A5; substrate, measured: 4-hydroxy metabolite formation): 107 µM
Cc1ncc2n1-c1ccc(Cl)cc1C(c1ccccc1F)=NC2  Km (CYP3A5; 4-hydroxylation, substrate): 38.4 µM
CCCCCc1cc(O)c2c(c1)OC(C)(C)c1ccc(C)cc1-2  inhibition (CYP2E1 human; human liver microsomes; 10 µM): inhibited
COc1ccc2c(c1)[C@]13CCCC[C@@H]1[C@H](C2)N(C)CC3  Km (CYP2D6; substrate): 0.44 to 8.5 µM
Cc1ncc2n1-c1ccc(Cl)cc1C(c1ccccc1F)=NC2  Km (UGT1A4; direct glucuronidation, substrate; Simcyp library default value): 40.3 µM
CCCCCc1cc(O)c2c(c1)OC(C)(C)[C@@H]1CCC(C)=C[C@@H]21  inhibition (CYP2E1 human; human liver microsomes; 10 µM): inhibited

Repeated from above:
CCCCCc1cc(O)c2c(c1)OC(C)(C)[C@@H]1CCC(C)=C[C@@H]21  inhibition (CYP2E1 human; human liver microsomes; 10 µM): inhibited
